Assay results of several laboratories.
Every numbered part comes from another study and shows a few of its results, in no order.

Sample 1
Target: Histone acetyltransferase KAT6A, both winged helices, GST fusion (KAT6A, Homo sapiens, UniProt Q92794, residues 1-181)
Method: protein binding microarray
Molecule type: double-stranded DNA, one strand shown
Medium: in vitro
Concentration: not given
Notes: 8-mer, flanks averaged, mean of 2 arrays, mostly near background
Baseline: not given
Reading: higher = stronger binding
Measurement: E-score
Residues (chain): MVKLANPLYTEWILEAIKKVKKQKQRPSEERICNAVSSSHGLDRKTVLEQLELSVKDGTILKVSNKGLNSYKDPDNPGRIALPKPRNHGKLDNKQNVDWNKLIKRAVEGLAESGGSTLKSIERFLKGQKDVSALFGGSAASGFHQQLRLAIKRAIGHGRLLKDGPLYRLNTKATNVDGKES
CTCGATCA: 0.00054
CATGCGCG: 0.33
CTCCACTA: -0.183
ACCCTGCC: -0.0858
ATCTGGTA: -0.122
ACGCGCCC: 0.323
CGCGTACA: 0.306
TGATACAA: -0.0505
ATAGTGCG: 0.223
ACTTGGGG: -0.0914
CTGAGACC: -0.0332
ATGCATAG: -0.135
AGGAAGTC: -0.177
AGGGTTGC: -0.163
AGCAACCT: -0.0388
GAACGTGC: 0.0588
GTGAATGA: -0.0896
CGTTTTAG: 0.0157
ACTAAGCT: -0.245
CGCGGGTA: 0.295
GTTTGCAA: -0.0576
ACGGTCCC: 0.191
AGGGACCT: -0.0956
GGTGCGAA: 0.0532
CTAGTGAA: -0.128

Sample 2
Target: RNA binding protein fox-1 homolog 2, RRM domain, GST-SBP tag (RBFOX2, Homo sapiens, UniProt O43251-10, residues 100-194)
Method: RNA Bind-n-Seq
Molecule type: RNA
Medium: in vitro
Concentration: 365 nM
Notes: natural RNA segment, single round, ends assumed
Baseline: no-protein control
Reading: higher = stronger binding
Measurement: RBNS enrichment (R)
All sequences stand within: GGGAGUUCUACAGUCCGACGAUC … UGGAAUUCUCGGGUGCCAA
Target sequence (chain): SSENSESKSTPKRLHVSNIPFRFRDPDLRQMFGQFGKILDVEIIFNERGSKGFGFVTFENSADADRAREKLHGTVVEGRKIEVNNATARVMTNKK
UCCUGCAACGAAGGAGGUGGUGCCGACGUGCUGCUUCCCAUCACCAGCAGCUGCUCGACAAGGGGCGCAGGGUGGCUGUCUUUGUUCCAGCACUGUUCAGGCUGCCUGUC: 0.466
AAUGAACGUUUCUGACUAAUAUUUUGUUGUAAACCAUUAAGUAAUGUAACGCAUGUAAGAUGCUUAGGGUGCCUGGCCAGGACUCCGUGGUUUCCUGUUGUGACAGUAAU: 16.9
ACCAGCUCCAGAGCCGCUCUUUUCCUAAGCCUCCUGUGCCGCCUUCAGUUUGUAGGAGGCAGCCUGUGUGAGUGACAGACAGGAAACAGAAGAGUAGAACAUACUGGCAG: 0.542
UACUCAAGUCUCUUGGGUAGAGAUCUGGAAGCCUGCAGGAGAGGAGGGGUACUUGUUUUCAUUGGAAAACUUUUAUGAUUAAGGGACUCUUUACAAACUGGCAUCUUAAG: 0.665
CUUCAGCCUUUCCAGACCACACACGAGACAUUAACCAUCCCAUGGAGAAGUUUACAUGGUGACUGUUCACCUGCAGUACUGUGGACUUUGAACAUUUUGUCCCCUUUCCA: 0.456
GGCAAGGUGAAAGACACUUGAAUUUCUCUUUUUAGCAAUCUUACUGUUUUCUGGUGCUGACUGCUACACCCAGGACUUUGCCCUCACUAAGCAAAUGUACCACCAAUGAG: 0.253
AGGGGGGAUGGGAAACAGCUGACUUCAAUUACCGUGCUGUAUAUUACCGUGCUGUAUACCUAUCUACUUUUCUGGGCAGCUGAUGGAGCUCUGGAAGAAACACCAAAGCC: 0.461
CAAAGCAGCGGGGAGUCGGGCUGUGGCAUGUCGUUCACAGAUAAAUGGCACACCUAGAUUCUUCUGGAAACAUUCUGGAACCUAUCUGAUGACCAGUAUUUCCAGAGUAA: 0.454
AGCCAUUGAGAGCUGUUCUUGUGAUCCAUGUCCUUCAUAAGCUGAACCACCACCAGAGAAAAGCAGGCCUGUGCAGUGCAGAUGCAAUGGAACGCAUCCCACCUUGCCAA: 0.529
CAUAAGCUUUGAAUCCUGUAGUUACAGUGGCAUAAAGGACUGACAAAACCUGGAUAAGGAAAAACCUUUUUUUUCUAUGAAUUUUUUUUGUUUUUUAGGGGAAAGGGAUU: 0.733
GUACACUUGGCUUCCCCCUGCAACUGCAGGGCCGCUUCUGGGGCCUGGACCACCAUGGGGAGGAAGAGUCCCACUCAUUACAAAUAAAGAAAGGUGGUGUGAGCCUGGGA: 0.496
UUCAUUCCACUUGUGUAAGUUAAGUCUUGACUCUUUCAAAUGCAAAAAACCUAUUUUAUGCUUUGUUAAAAUUAUGGUGUCACUUAGAUUGACUUUAGUUGACUGCACUA: 0.577

Sample 3
Target: RING finger protein unkempt homolog, zinc fingers 1-6, GST-SBP tag (UNK, Homo sapiens, UniProt Q9C0B0, residues 30-357)
Method: RNA Bind-n-Seq
Molecule type: RNA
Medium: in vitro
Concentration: not given
Notes: RNA with constant flanks, ends assumed
Baseline: input RNA pool
Reading: higher = stronger binding
Measurement: bound/input enrichment
All sequences stand within: GGGAGUUCUACAGUCCGACGAUC … CAACAGAGGAUUGAGCAUCA
Target sequence (chain): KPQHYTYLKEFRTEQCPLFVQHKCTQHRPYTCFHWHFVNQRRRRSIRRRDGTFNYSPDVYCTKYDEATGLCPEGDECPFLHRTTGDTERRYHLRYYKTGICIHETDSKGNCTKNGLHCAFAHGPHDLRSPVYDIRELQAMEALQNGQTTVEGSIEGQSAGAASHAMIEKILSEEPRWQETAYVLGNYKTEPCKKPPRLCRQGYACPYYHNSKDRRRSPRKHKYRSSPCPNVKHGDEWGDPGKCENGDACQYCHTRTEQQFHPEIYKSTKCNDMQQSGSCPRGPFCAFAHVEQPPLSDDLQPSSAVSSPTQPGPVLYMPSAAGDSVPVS
CCACAUUAGCACCCUGCCAGCCUACCAGCCUCUCUGUGCACAGCUUCUAAUGUUAUGAUCCCGCCCGAUUUUUAUUUAAAAUAUGAAAAACUGCUUUUCCCAAGACGUUUUUUAAAAGGA: 1.18 ratio
CUGGGGCCAUUGGAGGCCCACUGUAGGUGGGAGGGAGCUGAUUUUGGGGUGGGGGGUGGGACCCGAGGGCAAUACUGAAGGGGUUAAACAGGUUUUUGCUCCUCAAGAAUUUGUUUGCCU: 0.431 ratio
ACUAAUGCAGUAAUUGCUGGGUUGAUAGUAUUGGAAGGAUUGAAGAUUUUAUCAGGAAAAACCGACCAGUGCAGAACAAUUUUUUUGAAUAAACAACCAAACCCAAGAAAGAAGCUUCUU: 0.119 ratio
CCCUGGCUGUCCUGGAACUCUCUCUGUAGACCAGGCUGGCCUCGAACUCAGGGAUCCACCCCGCUCUGUCUCUGAGUGCUGAGACUGAAGGUGUGCGCCGCCACGCCUGGCUUUUUUCCC: 0.134 ratio
GCAGAUGAAGUAGAGUUUACUGUGGUUCCUGAUAUGCUCUCUGCCCAAAGAAAUCAUGCUAUCCGGAUUAAAAAACUUCCCAAGGGCACGGUUUCAUUCCAUUCCCAUUCAGAUCAUCGU: 0.307 ratio
CUUCUCAGCAUGGGGAAAUAACAGUUCUCAGGGACAGUCUACUCAAAGCUCUGGAUACCGCCGCAAUUACGCUUAUGCACCCAGCUCCUUAGGUGGAGCCAUGAUUGAUGGACAGUCAGC: 0.0919 ratio
UUUCUUCCACCUACCACCGUGGCUGGUGCCACUCUUUACUCAGUGGCAAUGUACGGUGGAUCCGUUCUUUUCAGCAUGUUCCUUCUGUAUGAUACCCAGAAAGUAAUCAAGCGUGCAGAA: 0.1 ratio
UACCUCCAGAAGGCACUACUUCUAUCGUAGGGCGAGUCUAAUUGUUAGACAUUUCUUACUUACCGUGAUUGGAUUCUGCUUUCCUAUGACUUCUGCCUACUGGGUCUUGUUUUGUUCCUU: 0.363 ratio
UCUUUCCAGUAGUAGCCAGGAAAGGUUAUCUGGGUUAGGGUUUUUGUUGUUUGUAUUCCGCCGGUUUUUGUUUUGUUUUGUUUUGUUUAACCUCUGUGCUGUUUACAUAAACAAAUUGCU: 1.32 ratio
AACAAACUUAUAGUGAUGCGUUGGAAGGUUAAUCGAAACCAUCCUUACCCCUAUUUAAUGCCGUUUACCUUGAUUUUUAUCUGAUAUUAACAAUACCAUAUAGCUUGCUUUUUAUUAGCA: 6.58 ratio
CAGAAACUGGAAGAGAUGGUUACCCGUUUAGAUCAAGAAGUAGCCGAGGUUGAUAAAAACACCGAACUUUUGAAAAAGAAGGAUGAAGAACUCAGUUCUGCUCUGGAAAAAAUGGAAAAU: 0.365 ratio

Sample 4
Target: Fragile X messenger ribonucleoprotein 1, C-terminal low-complexity region (Fmr1, Mus musculus, UniProt P35922)
Method: RNA Bind-n-Seq
Molecule type: RNA
Medium: in vitro
Concentration: 200 nM
Notes: whole 134-nt RNA, ends assumed
With: 150 mM KCl
Baseline: input library
Reading: higher = stronger binding
Measurement: log2 enrichment
All sequences stand within: GGGAGUUCUACAGUCCGACGAUC … UGGAAUUCUCGGGUGUCAAGG
UGGCCCUGGUGGCAUGCGGGGAGGAAGAGGUGGCCUCACGGAUCGUGGUGGUCCCGGUGGAAUGUUCAGAGGUGGCCGUGGUGGAGACAG: 0.234
CCUGUGCUACACAUCGUAUGUACCGAAUCGGGGUUUUUUGGGGUUUUUUGGGUUUUUUGGAAAGUAUUAUGUUACGCCGUUCGGAUCUGC: -0.0541
GUGCUGGCUGGCCACGGUCACCUGUAUUCCCGCAUCCCAGGCCUGCUCAGCCCCCAUCCCCUGCUGCAGCUGAGCUACACGGCCACCGAC: 0.561
UGGCCCUGGUGGCAUGCGGGGAGGAAGAGGUGGCCUCAUGGAUCGUGGUGGUCCCGGUGGAAUGUUCAGAGCUGGCCGUGGUGGAGACAG: 0.00731
CUCAAGUCCUGUGCUACACAUCGUAUGUACCGAAUCGGCCGGCCGGGCCGGGGAAAGUAUUAUGUUACGCCGUUCGGAUCUGCACUUCCA: -0.346
UCCUGUGCUACACAUCGUAUGUACCGAAUCGUGUGUGUGUGUGUGUGUGUGUGUGUGUGUAAAGUAUUAUGUUACGCCGUUCGGAUCUGC: 0.811
CCUGUGCUACACAUCGUAUGUACCGAAUCGGGUUUUUGGGAAAAAAAGGGUUUUUUUGGGAAAGUAUUAUGUUACGCCGUUCGGAUCUGC: -0.816
CCUGUGCUACACAUCGUAUGUACCGAAUCGGGGUUUUUUGGGUUUUUUGGGUUUUUUGGGAAAGUAUUAUGUUACGCCGUUCGGAUCUGC: -0.148
CCUCAAGUCCUGUGCUACACAUCGUAUGUACCGAAUCGGGCGGCGGGGCGGGGAAAGUAUUAUGUUACGCCGUUCGGAUCUGCACUUCCA: 1.11
GUCCUGUGCUACACAUCGUAUGUACCGAAUCGGGGCCCCCGGCCCCCGGCCCCCGGGGAAAGUAUUAUGUUACGCCGUUCGGAUCUGCAC: -0.462
UCCUGUGCUACACAUCGUAUGUACCGAAUCGGGAAAAAGGGUUUUUGGGAAAAAAAGGGAAAGUAUUAUGUUACGCCGUUCGGAUCUGCA: -0.329
CUCAAGUCCUGUGCUACACAUCGUAUGUACCGAAUCGGAGGGGAGGGGAGGGGAAAGUAUUAUGUUACGCCGUUCGGAUCUGCACUUCCA: 1.05
CACAGACAACACGCAUCCACACAGACACAGAGGGAAGGGGUUGGGAUGGGGACAGGGUGCACAGCAGGGCGGGGUAGGACCCCAGCCCCU: 1.36
ACCAUGCAGGUGGGCAUCUUUGGGAAGUGGGGCAAGGGGGGGAUAGGGAGGGGGGUAACACAUUGGGAACAGGUGGUCCCAGGUCGUUUC: 0.6

A few entries again (sample 2):
AAUGAACGUUUCUGACUAAUAUUUUGUUGUAAACCAUUAAGUAAUGUAACGCAUGUAAGAUGCUUAGGGUGCCUGGCCAGGACUCCGUGGUUUCCUGUUGUGACAGUAAU: 16.9
ACCAGCUCCAGAGCCGCUCUUUUCCUAAGCCUCCUGUGCCGCCUUCAGUUUGUAGGAGGCAGCCUGUGUGAGUGACAGACAGGAAACAGAAGAGUAGAACAUACUGGCAG: 0.542
UACUCAAGUCUCUUGGGUAGAGAUCUGGAAGCCUGCAGGAGAGGAGGGGUACUUGUUUUCAUUGGAAAACUUUUAUGAUUAAGGGACUCUUUACAAACUGGCAUCUUAAG: 0.665
